Results of several laboratories.
Numbered parts are unrelated; each lists some results of a single study. Values joined by “and” are separate records of one study, mostly repeats; a detail may differ.
Chain of UniProt Q16853 (whole entry, looked up): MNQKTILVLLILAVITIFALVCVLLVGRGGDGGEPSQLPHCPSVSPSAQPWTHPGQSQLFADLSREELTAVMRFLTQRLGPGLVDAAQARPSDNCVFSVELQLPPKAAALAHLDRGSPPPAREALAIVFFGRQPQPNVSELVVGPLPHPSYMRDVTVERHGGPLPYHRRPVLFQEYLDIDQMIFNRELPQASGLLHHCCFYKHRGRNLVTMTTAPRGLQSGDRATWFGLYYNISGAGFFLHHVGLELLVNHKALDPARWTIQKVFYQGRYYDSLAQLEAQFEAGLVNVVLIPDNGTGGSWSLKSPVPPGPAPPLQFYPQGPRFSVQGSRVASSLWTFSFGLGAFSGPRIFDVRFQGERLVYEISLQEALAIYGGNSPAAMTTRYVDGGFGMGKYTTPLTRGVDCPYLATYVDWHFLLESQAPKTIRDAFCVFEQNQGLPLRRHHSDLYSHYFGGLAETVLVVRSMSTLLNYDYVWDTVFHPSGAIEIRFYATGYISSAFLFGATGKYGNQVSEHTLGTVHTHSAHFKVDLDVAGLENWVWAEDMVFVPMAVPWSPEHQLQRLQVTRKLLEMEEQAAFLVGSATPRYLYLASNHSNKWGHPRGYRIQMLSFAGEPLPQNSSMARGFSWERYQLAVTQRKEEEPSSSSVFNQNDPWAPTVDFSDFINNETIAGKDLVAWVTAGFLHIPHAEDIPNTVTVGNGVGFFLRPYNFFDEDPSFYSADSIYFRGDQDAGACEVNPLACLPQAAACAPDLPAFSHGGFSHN

Study 1 — observed: enzyme activity; action: inhibitor; method: fluorescence
SMILES: NC/C(=C\F)COc1cc(Cn2c(=S)[nH]c(=O)c3[nH]cnc32)cc(C(F)(F)F)c1
MPO: Myeloperoxidase (MPO, Homo sapiens, UniProt P05164)
Chain of UniProt P05164 (whole entry, looked up): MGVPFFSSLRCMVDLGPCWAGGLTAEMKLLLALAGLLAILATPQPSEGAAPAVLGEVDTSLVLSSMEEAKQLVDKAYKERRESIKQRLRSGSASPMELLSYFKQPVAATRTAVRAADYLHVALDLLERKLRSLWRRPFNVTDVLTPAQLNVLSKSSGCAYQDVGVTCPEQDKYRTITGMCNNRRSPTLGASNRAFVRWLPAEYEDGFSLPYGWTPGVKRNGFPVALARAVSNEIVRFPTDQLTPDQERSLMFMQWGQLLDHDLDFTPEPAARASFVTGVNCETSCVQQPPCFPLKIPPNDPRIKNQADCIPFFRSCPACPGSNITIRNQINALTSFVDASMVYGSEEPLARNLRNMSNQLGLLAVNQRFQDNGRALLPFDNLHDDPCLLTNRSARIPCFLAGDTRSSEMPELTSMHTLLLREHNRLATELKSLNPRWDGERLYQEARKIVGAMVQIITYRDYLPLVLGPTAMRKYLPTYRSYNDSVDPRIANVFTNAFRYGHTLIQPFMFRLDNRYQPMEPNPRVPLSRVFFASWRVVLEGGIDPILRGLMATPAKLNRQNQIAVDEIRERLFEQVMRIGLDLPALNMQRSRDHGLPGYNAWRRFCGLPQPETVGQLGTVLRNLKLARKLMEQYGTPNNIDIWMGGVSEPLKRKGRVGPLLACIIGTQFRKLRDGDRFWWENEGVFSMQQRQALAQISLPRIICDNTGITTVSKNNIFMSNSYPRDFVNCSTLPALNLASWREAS
MPO; 800 pM — inhibition: 3.83%.
It gave 4.6% and -0.386% and 1.57% and 2.49% for inhibition (AOC3 (Homo sapiens, UniProt Q16853); 0.1235 µM).
For MPO; 2.3 nM: inhibition read 17.2%.
It gave -6.48% for inhibition (MPO; 500 pM).
MPO; 30 µM — inhibition: 101%.
For MPO; 1.111 µM: inhibition read 99.6%.
For MPO; 0.3704 µM: inhibition read 99.9%.
MPO; 0.1852 µM — inhibition: 98.8%.

Study 2 — observed: metabolic stability; matrix: liver microsomes
Structure (SMILES): Cn1cc(-c2cccc(CN3CCC4(CC3)COc3c4ccc4c3CN([C@H]3CCC(=O)NC3=O)C4=O)c2)cn1
It gave 99.6% for compound remaining (mouse; 5 min).
The compound remaining was 82.2% (mouse; 45 min).
For rat; 30 min: compound remaining read 83.1%.
rat; 0 h — compound remaining: 100%.
It gave 76.4% for compound remaining (rat; 45 min).
mouse; 30 min — compound remaining: 87.4%.
It gave 92% for compound remaining (human; 30 min).
It gave 100% for compound remaining (human; 0 h).
It gave 58.2% for compound remaining (monkey; 30 min).
The compound remaining was 79.8% (human; 45 min).

Study 3
SMILES: Cc1ncsc1-c1ccc(C(CO)NC(=O)C2CC(O)CN2C(=O)C(C(C)C)n2cc(-c3ccc(COc4c(-c5c(C)c(F)cc6[nH]ncc56)c(C5CC5)cc5c(N6CC7CC6CN7)nc(OC6CCOCC6)nc45)cc3)nn2)cc1 (stereo not drawn)
It gave 7.64 µM for IC50 (PSN1; cell growth or viability, ATP luminescence).
The IC50 was 0.0147 µM and 0.0159 µM and 0.0107 µM (AsPC-1; In-Cell ELISA, item: phospho-ERK1/2).
PK-59; cell growth or viability, ATP luminescence — IC50: 0.0169 µM.
The IC50 was 1.4 µM (PaTu 8902; cell growth or viability, ATP luminescence).
HPAC; cell growth or viability, ATP luminescence — IC50: 0.014 µM.
It gave 0.136 µM for IC50 (NCI-H358; cell growth or viability, ATP luminescence).
NCI-H1299; cell growth or viability, ATP luminescence — IC50: > 3 µM.
It gave 0.161 µM for IC50 (SW-403; cell growth or viability, ATP luminescence).

Mixed results
Under “oxygen consumption rate”, `Cc1nc(C)c(C=[N+]([O-])C(C)(C)C)nc1C` is recorded as 907 pmol/min and 758 pmol/min and 831 pmol/min and 585 pmol/min and 868 pmol/min (PC-12; Seahorse; 300 µM, 52.67 min, pretreatment 0.8778 h, together with: MPP+).

Some of these lines once more (study 3):
NCI-H1299; cell growth or viability, ATP luminescence — IC50: > 3 µM.
It gave 0.161 µM for IC50 (SW-403; cell growth or viability, ATP luminescence).
